Results pooled from the literature.
Each numbered part is a random draw from the data of one study; scales do not carry over between parts. Changes are numbered by the printed parent chain.
Chain of UniProt P42336 (whole entry, unmodified, looked up): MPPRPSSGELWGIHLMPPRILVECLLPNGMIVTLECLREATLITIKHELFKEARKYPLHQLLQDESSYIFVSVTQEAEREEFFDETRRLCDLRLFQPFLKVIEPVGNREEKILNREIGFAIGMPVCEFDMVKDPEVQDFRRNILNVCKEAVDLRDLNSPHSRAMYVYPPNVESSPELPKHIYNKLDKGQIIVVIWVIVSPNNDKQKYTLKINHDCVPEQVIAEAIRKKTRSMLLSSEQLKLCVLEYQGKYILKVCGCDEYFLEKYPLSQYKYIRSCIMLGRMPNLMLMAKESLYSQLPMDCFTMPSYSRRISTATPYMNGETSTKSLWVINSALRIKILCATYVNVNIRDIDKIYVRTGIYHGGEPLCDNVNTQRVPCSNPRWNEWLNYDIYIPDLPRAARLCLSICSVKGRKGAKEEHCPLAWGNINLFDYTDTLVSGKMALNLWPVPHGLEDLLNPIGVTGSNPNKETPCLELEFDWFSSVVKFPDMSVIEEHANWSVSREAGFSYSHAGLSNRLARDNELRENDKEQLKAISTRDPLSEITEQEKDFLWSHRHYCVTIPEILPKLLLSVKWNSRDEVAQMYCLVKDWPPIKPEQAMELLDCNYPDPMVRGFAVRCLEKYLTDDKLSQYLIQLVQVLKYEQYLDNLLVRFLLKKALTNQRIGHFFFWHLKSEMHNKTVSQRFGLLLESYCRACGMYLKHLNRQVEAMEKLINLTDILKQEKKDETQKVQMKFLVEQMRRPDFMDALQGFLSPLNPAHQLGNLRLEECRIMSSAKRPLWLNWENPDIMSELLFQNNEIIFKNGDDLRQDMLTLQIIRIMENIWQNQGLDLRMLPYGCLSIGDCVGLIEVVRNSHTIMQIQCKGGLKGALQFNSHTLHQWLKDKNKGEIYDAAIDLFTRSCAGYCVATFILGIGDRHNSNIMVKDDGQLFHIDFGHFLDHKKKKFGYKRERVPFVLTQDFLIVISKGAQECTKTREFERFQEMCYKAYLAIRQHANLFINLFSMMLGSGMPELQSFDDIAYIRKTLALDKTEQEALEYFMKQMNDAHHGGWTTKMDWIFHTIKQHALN
Chain of UniProt P20794 (whole entry, looked up): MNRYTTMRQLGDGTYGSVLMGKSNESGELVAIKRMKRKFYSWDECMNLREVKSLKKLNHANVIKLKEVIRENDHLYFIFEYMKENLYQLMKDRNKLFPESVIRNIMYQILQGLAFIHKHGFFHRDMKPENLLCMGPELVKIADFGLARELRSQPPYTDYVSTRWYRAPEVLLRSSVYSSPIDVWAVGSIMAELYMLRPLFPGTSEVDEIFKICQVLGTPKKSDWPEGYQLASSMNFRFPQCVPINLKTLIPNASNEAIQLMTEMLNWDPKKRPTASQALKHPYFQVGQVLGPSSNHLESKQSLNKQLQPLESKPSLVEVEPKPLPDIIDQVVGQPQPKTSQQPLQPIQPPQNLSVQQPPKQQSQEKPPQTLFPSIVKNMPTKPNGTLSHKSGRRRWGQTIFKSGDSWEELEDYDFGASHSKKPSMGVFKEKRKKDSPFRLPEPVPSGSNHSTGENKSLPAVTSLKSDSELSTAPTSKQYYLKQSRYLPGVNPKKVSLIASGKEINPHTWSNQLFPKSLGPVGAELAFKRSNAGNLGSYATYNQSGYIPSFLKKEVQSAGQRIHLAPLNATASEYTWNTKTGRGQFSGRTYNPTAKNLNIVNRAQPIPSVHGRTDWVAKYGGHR
Chain of UniProt Q8NFD2 (whole entry, looked up): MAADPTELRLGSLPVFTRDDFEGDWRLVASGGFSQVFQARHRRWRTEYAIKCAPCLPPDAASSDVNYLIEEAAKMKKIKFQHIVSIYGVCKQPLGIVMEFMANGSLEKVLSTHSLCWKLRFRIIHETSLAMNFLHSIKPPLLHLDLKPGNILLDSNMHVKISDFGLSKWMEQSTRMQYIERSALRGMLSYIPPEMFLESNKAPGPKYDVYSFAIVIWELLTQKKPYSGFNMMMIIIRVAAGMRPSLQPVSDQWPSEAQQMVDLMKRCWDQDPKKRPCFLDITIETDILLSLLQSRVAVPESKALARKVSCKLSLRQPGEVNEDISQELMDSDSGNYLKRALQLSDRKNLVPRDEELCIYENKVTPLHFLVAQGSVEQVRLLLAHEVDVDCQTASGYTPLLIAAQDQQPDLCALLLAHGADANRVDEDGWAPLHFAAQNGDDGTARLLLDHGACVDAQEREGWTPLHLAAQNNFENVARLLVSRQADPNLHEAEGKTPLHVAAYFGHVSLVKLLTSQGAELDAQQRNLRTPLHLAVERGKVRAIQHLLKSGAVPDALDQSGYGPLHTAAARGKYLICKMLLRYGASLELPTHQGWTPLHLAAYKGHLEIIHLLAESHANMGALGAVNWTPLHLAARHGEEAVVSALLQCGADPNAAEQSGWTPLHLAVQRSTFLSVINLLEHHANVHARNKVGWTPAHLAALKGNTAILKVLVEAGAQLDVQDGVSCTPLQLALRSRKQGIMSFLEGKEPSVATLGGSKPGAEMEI
Chain of UniProt Q8TDR2 (whole entry, looked up): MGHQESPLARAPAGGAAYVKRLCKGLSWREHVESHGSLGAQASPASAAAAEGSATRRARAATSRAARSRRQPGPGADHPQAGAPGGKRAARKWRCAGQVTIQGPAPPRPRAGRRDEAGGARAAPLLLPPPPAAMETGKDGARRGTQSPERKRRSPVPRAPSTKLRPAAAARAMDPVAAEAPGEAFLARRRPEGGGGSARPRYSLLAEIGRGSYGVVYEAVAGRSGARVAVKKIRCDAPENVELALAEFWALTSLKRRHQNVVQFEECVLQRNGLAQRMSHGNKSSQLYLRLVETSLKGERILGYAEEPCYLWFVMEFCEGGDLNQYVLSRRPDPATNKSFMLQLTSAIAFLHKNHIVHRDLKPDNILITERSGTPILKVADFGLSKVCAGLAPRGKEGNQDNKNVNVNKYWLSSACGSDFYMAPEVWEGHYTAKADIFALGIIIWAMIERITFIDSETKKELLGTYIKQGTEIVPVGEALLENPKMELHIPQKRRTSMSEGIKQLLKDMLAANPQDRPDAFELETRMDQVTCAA
Chain of UniProt P36894 (whole entry, looked up): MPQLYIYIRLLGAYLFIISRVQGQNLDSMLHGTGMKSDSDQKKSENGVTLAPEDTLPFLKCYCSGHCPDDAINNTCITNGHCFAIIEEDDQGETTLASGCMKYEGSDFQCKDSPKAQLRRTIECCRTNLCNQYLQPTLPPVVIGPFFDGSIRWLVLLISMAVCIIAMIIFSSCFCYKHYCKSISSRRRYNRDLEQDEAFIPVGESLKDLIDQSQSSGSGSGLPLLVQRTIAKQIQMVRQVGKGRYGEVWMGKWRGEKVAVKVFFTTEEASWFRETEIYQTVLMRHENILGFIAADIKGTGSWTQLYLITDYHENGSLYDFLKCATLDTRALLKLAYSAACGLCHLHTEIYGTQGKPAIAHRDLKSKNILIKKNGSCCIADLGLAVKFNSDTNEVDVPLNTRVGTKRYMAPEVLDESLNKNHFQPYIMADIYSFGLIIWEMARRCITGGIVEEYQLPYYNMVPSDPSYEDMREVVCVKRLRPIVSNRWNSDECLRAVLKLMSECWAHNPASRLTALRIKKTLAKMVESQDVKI
Chain of UniProt O43353 (whole entry, looked up): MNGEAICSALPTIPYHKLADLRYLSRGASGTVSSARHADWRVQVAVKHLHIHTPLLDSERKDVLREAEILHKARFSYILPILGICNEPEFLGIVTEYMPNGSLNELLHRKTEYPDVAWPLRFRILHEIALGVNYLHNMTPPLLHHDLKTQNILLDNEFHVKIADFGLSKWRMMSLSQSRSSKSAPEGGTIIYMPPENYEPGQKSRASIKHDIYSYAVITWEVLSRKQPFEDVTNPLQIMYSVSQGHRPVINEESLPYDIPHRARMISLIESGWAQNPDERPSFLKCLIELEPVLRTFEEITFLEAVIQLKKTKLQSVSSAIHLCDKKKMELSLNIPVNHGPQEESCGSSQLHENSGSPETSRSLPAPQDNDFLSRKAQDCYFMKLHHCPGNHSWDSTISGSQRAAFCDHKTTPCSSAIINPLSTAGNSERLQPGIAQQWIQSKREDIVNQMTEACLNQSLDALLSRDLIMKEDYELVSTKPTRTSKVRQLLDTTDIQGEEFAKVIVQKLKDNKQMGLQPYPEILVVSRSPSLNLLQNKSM
Chain of UniProt Q12866 (whole entry, looked up): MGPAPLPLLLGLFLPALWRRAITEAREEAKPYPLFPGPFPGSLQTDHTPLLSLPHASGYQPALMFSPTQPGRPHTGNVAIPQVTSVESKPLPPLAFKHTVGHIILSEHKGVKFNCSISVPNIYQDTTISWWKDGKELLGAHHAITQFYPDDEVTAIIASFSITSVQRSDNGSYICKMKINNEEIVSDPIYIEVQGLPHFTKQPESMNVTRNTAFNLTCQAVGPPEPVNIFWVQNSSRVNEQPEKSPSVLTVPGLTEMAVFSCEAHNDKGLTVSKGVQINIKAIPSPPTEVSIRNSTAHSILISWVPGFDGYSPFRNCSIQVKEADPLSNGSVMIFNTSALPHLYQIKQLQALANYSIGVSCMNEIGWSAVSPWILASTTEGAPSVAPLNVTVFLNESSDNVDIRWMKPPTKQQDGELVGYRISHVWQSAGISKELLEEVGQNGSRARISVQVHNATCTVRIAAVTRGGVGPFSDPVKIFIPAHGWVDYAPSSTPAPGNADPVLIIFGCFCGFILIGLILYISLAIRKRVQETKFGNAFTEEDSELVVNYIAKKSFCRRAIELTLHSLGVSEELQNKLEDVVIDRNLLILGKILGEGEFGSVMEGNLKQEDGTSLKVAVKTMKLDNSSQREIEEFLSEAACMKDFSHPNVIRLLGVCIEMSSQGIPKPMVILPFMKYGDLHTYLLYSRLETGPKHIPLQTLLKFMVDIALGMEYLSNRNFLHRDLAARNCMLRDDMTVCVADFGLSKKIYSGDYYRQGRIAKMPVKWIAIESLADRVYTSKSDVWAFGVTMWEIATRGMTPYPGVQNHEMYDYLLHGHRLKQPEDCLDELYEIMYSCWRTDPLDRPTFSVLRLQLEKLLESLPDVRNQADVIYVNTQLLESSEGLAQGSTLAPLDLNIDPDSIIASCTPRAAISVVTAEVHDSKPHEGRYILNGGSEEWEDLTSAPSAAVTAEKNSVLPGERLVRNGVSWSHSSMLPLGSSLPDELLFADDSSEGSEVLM

Set 1
Target: CCND3, cyclin fold, Cln2 fusion (human)
Method: yeast growth competition, sequencing
Medium: yeast
Notes: weak parent motif
Reference: not given
Reading: higher = stronger binding
Endpoint: normalised enrichment score
Parent: MASTL docking peptide (human); PMIAKNLMCELDE; partner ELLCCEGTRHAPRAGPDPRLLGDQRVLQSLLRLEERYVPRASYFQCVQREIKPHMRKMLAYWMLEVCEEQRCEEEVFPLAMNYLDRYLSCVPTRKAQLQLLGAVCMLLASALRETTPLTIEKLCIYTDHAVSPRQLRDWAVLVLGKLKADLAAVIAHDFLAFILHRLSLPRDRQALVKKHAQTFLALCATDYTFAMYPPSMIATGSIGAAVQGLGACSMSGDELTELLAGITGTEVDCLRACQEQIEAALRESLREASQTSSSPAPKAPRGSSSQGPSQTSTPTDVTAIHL
D12R: -0.0589
E10V: 0.0402
L11E: 0.0927
C9A: 0.18
A4Y: -0.195
M8Y: -0.177
M2K: 1.05
E10I: 0.147

Set 2
SMILES: Cc1c(NC(=O)c2cc(C(N)=O)nc3cc(F)ccc23)c(C(F)(F)F)nn1Cc1ccc(C#N)cc1
Method: competition with immobilised ligand
Tested at: 1 µM
Endpoint: remaining binding
TEC (Homo sapiens, UniProt P42680); binding: 85%
FES (Homo sapiens, UniProt P07332); cell-free assay: 83%
BUB1 (Homo sapiens, UniProt O43683); cell-free assay: 88%
MAK (Homo sapiens, UniProt P20794); binding: 79%
RIPK2 (Homo sapiens, UniProt O43353); cell-free assay: 100%
PIK3CA (Homo sapiens, UniProt P42336, H1047L); cell-free assay: 88%
STK35 (Homo sapiens, UniProt Q8TDR2); cell-free assay: 85%
MATK (Homo sapiens, UniProt P42679); cell-free assay: 66%
BMPR1A (Homo sapiens, UniProt P36894); binding: 84%
MERTK (Homo sapiens, UniProt Q12866); cell-free assay: 100%
CDK9 (Homo sapiens, UniProt P50750); cell-free assay: 86%
STK38L (Homo sapiens, UniProt Q9Y2H1); binding: 100%
ANKK1 (Homo sapiens, UniProt Q8NFD2); cell-free assay: 80%
PRKACB (Homo sapiens, UniProt P22694); cell-free assay: 93%
DAPK1 (Homo sapiens, UniProt P53355); cell-free assay: 86%
PIK3CA (Homo sapiens, UniProt P42336, E545A); cell-free assay: 81%
STK17B (Homo sapiens, UniProt O94768); cell-free assay: 72%
ALK (Homo sapiens, UniProt Q9UM73); cell-free assay: 87%

Set 3
Observed: AlphaScreen signal
Method: AlphaScreen counter screen
Medium: His6 peptide without bromodomain
Tested at: 50 µM
Notes: assay interference check
Endpoint: inhibition
O=[N+]([O-])c1ccc(-c2cc(C(F)(F)F)[nH]n2)cc1: 23.6%
Nc1nc(OCc2ccccc2)c2nc[nH]c2n1: 9.75%
O=C(Nc1nccs1)c1n[nH]c2ccccc12: 7.65%

Set 4
Target: OGT, full length, His-tagged (human)
Method: phage display, sequencing
Medium: in vitro
Tested at: 1 µg OGT
Notes: single substitutions, 15-mer displayed peptide, unchanged parent 16.7
Reference: input library
Reading: higher = stronger binding
Endpoint: fold enrichment
Parent: peptide; NSEYMPQYQIIFAHQ
NSEYMPQAQIIFAHQ [Y8A]: 0.631 fold
NSVYMPQYQIIFAHQ [E3V]: 14.4 fold
NSEYMPQFQIIFAHQ [Y8F]: 2.8 fold
NSEYMPQYQFIFAHQ [I10F]: 0.915 fold
NSEYMPQYQIWFAHQ [I11W]: 13.3 fold
NSEYMPQEQIIFAHQ [Y8E]: 0.705 fold
NSEYMPQYQIIFARQ [H14R]: 18.6 fold
NSEYMPQHQIIFAHQ [Y8H]: 0.615 fold

Single results of other studies
COC(=O)Nc1nc2ccc([S+]([O-])c3ccccc3)cc2[nH]1 (centres unmarked) — viability (Huh-7; 10 µM, 24 h): 86.8%

Repeated from above (set 4):
NSEYMPQFQIIFAHQ [Y8F]: 2.8 fold
NSEYMPQEQIIFAHQ [Y8E]: 0.705 fold
NSEYMPQYQFIFAHQ [I10F]: 0.915 fold
NSVYMPQYQIIFAHQ [E3V]: 14.4 fold
NSEYMPQHQIIFAHQ [Y8H]: 0.615 fold
